Experimental data of several laboratories.
A part holds a random share of what one study measured. Changes are numbered by the printed parent chain.

Study 1
Target: Hepatocyte nuclear factor 3-alpha (Foxa1, Mus musculus, UniProt P35582, residues 1-468, full length assumed)
Chain of UniProt P35582 (whole entry, looked up): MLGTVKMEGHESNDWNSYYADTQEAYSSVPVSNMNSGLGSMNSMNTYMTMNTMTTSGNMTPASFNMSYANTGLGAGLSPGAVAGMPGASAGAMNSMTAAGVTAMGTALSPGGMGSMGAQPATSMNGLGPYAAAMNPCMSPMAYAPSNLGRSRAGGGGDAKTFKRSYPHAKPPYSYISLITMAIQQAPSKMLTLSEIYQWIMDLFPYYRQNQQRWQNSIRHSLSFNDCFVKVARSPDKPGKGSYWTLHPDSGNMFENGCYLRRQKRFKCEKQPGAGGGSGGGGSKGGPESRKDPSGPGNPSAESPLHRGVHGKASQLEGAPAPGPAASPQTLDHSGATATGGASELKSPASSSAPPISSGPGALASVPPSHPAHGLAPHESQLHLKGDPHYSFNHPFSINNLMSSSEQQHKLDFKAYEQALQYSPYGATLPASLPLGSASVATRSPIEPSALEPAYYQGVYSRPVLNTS
Technique: EMSA with sequencing
Molecule type: double-stranded DNA, one strand shown
Medium: in vitro
Tested at: 10 and 20 nM
Notes: whole designed probe, mean of two concentrations, ends assumed
Relative to: negative control set to 0
Direction: higher = stronger binding
Endpoint: normalised bound fraction
Constant ends, left off below: GTGAGCGGTGCCCATTGATGGGGAAC … TTTCACTGGGATCGTGGGGAC
ATGTAGTAATGGATTGGAGTTGGAGATATCAGTATGAATTCATGCTTAGTGTGATATAGACAGAAATGTATTTATAGATAAGATTATATATATGTCATTTTACACATATATATTTCCTTGCTATGTCAGCTGAGAAGGCATAGAAACAACAACAACTCAGTAGCAGTGAGCACCCTAGTGCCCAGATCTTGGT: 0.0348 ratio
AAGAAAAAAAAATACACTGCAAAACAGACTGCCTGTAGGAAATCATTTGAGTTTTTAAAAATGTGATCTCTTTGAGAGTAACCCAGTGTTTTCTTGTTTACTTATTTATTTTTTAGTTAAAATCAGGGAGCCTGATTTAAGAAGAAAAGTAGCCATTGAAAAAATAAAGTCACATGCATGCCTTTTGTCATAT: 0.385 ratio
GGATGGCCTGTGGATCACGCTTTGAGTAGCAAGCTATGGACTGTTCACTGGTCATATGAAAAAGATGATGACACTGATTAGGCCCACCAGCTAAGTAAACATCGAAAACTCATTCAGCCCCATGAAGTCACTAGAGCTGTGTTAAACAGCCAGTGTGGTCAACAGAAGAAATTTATGTCATGGTATTTGCTTA: 0.491 ratio
TGGCCCAGGGGTTGGGGACCCCTAATATATAATGATTCACATTATATATCAAAAGTAAATCAAAAAATTATAACTACAGCTAATTAAAAACTATGTAAACATACAGATGAAAATAAGATATTATGCAGCACTATAATTAGCTGCTGTTAAGTGATGATGTTGTAGAGAGGTTTTAATACAAATAAAACTTGGA: 0.478 ratio
GCAATAGCAAAAGTAAGGCAGGGAAGTACAAATTCAATAGCAAACAAATAGTGGTATGGCCATGTCACAATACCCTGCGGCCATTTCAAGTGAAGATTACAAAGTTTGTAGGCAGACAGTCACCTCGAAATTACAAAGCTCCGACTGTGCGGGGCGCTGGGTTGGGCACGGAGCAGATAGGGCCAGAAGGCCA: 0.234 ratio
TGAAATGGTAGCTAGTAGATGGTGAATTTAAGCAAGATTTGTTCCCTTTCTTCCACTATACGCCTCTAAGGAAATTAAAAAAAAAAAAGGCTTGTTTACTTTGGAATGTGGAGTAAAGAGAGCAACAAGAGATTGAAGTCAAAGAATAGGTAAGTGAGCACTGTAAGGATCTGCAGAGACAGACAGAAAAAGT: 0.421 ratio
TCTAGAGACATTTCTTGGACAAAAGAAAAAAAACAAAGCTGAATTGTGAGAAGATGTCAGCAAAAAAGCACATCATTATTTAAATCAGGGCTAAGTAAATAAGGAGCTGGATGTGTCTGTGTTTGCTTACAACACGTAGGATCAATTCATATATTTTAAGAAGTGCACGTATGGATTGAGCTGATTTGATTAA: 0.479 ratio
TTTCCAGCCCTTAGTTTCTGGCATTTAACCTGACTCTGGTCCCTGAATGGCATGGGAGTGCTTTCAACCACAGGTTTCCACATTCATGCAAAAGCAAACAAGTGTGATCTACAGAGATCTTTATCTGACTCATTCTTGCTTTGTGTTTCCAATGGAGAAAGAGCTTGGGAAGGGAGGATCCTAATTGTCTAAA: 0.283 ratio

Study 2
Target: Histone acetyltransferase KAT6A, both winged helices, GST fusion (KAT6A, Homo sapiens, UniProt Q92794, residues 1-181)
Technique: protein binding microarray
Molecule type: double-stranded DNA, one strand shown
Medium: in vitro
Tested at: not given
Notes: 8-mer, flanks averaged, mean of 2 arrays, mostly near background
Relative to: not given
Direction: higher = stronger binding
Endpoint: E-score
Construct (chain): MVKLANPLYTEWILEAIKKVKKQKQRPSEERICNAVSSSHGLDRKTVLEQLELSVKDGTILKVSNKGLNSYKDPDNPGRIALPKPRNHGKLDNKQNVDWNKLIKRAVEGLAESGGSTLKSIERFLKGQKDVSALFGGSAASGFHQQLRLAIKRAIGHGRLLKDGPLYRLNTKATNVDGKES
AGTTGCAC: -0.116
ATCTGCCG: 0.227
AACAAATC: -0.0663
CAGTGAAC: -0.121
CTTAATTA: -0.165
ACACTAAC: 0.0335
GTATATCA: 0.00363
TCCACCCA: -0.225
CGGCCGGA: 0.231
GATTGCGA: 0.201
TGACTACA: -0.111
AAAACAAT: 0.0386
ACATCGTG: -0.0762
AAGGGGGG: -0.316
GTTCAAAA: -0.0392
TAGCGCTA: 0.349
CTCTCGAA: -0.142
ATCGGCGG: 0.242

Study 3
Target: Fragile X messenger ribonucleoprotein 1, C-terminal low-complexity region (Fmr1, Mus musculus, UniProt P35922)
Technique: RNA Bind-n-Seq
Molecule type: RNA
Medium: in vitro
Tested at: 200 nM
Notes: whole 134-nt RNA, ends assumed
Added: 150 mM LiCl
Relative to: input library
Direction: higher = stronger binding
Endpoint: log2 enrichment
Each molecule: 7-deaza-guanosine replaces G
Constant ends, left off below: GGGAGUUCUACAGUCCGACGAUC … UGGAAUUCUCGGGUGUCAAGG
AGUCCUGUGCUACACAUCGUAUGUACCGAAUCGGAAAAAGGGGAAAAAGGAAAAAGGGAAAGUAUUAUGUUACGCCGUUCGGAUCUGCAC: -0.639
UGGGAGGUGGAUUUUGUUUAUUUUUUUAGCUCAUUUCCAGGGGUGGGAAUUUUUUUUUAAUAUGUGUCUUGAAUAAAGUUGUUUUUGAAA: 0.194
UCAAGUCCUGUGCUACACAUCGUAUGUACCGAAUCGGGGAAAGGAAAGGGAAAGGAAAGUAUUAUGUUACGCCGUUCGGAUCUGCACUUC: -0.733
GGAAGGGGGCUUGCGCCACGGCAGUGAAUCUUCAUGGAUCUUCAUGCAGCCAUACAAACCCUGGUUCCAACAGAAUGGUGAAUUUUCGAC: -1.48
UGUGCUACACAUCGUAUGUACCGAAUCGGGCCCCCCCGGGCCCCCCCGGGGCCCCCCCGGGGAAAGUAUUAUGUUACGCCGUUCGGAUCU: -1.02
UUUUAUUCUUCCAUCUUUUCCCACAGGUGGCAGCUGCCAACAAGAAGCAUUAGAACAAACCAUGCUGGGUUAAUAAAUUGCCUCAUUCGU: 1.49
UCCUGUGCUACACAUCGUAUGUACCGAAUCGGGGAAAAAGGGGAAAAAGGGGAAAGGGGAAAGUAUUAUGUUACGCCGUUCGGAUCUGCA: -0.266
ACCAUGCAGGUGGGCAUAAAUGGGAAGUGGGGCAAGGGGGGGAUAGGGAGGGGGGUAACACUUUGGGAACAGGUGGUCCCAGGUCGUUUC: 1.32
GCAGGAAGUAAAAACAAAUGGAAAUGCUUCGGAUAGUGGCAGGGGUGGGGGUUGCUAAGGAAAGGGUGGGAUGGGAGUGGGUAGAGAGUU: 1.24
UCCUCAAGUCCUGUGCUACACAUCGUAUGUACCGAAUCGGCGGGGCGGGCGGAAAGUAUUAUGUUACGCCGUUCGGAUCUGCACUUCCAG: 0.695
UAACUUUAGAGGUGGAUCUGAUGGAUAUGGCAGUGGACGUGGAUUUGGGGAUGGCUAUAAUGGGUAUGGAGGAGGACCUGGAGGUGGCAA: 0.463

Study 4
Target: Sal-like protein 4, full length isoform A (SALL4, Homo sapiens, UniProt Q9UJQ4, residues 1-1053)
Chain of UniProt Q9UJQ4 (whole entry, looked up): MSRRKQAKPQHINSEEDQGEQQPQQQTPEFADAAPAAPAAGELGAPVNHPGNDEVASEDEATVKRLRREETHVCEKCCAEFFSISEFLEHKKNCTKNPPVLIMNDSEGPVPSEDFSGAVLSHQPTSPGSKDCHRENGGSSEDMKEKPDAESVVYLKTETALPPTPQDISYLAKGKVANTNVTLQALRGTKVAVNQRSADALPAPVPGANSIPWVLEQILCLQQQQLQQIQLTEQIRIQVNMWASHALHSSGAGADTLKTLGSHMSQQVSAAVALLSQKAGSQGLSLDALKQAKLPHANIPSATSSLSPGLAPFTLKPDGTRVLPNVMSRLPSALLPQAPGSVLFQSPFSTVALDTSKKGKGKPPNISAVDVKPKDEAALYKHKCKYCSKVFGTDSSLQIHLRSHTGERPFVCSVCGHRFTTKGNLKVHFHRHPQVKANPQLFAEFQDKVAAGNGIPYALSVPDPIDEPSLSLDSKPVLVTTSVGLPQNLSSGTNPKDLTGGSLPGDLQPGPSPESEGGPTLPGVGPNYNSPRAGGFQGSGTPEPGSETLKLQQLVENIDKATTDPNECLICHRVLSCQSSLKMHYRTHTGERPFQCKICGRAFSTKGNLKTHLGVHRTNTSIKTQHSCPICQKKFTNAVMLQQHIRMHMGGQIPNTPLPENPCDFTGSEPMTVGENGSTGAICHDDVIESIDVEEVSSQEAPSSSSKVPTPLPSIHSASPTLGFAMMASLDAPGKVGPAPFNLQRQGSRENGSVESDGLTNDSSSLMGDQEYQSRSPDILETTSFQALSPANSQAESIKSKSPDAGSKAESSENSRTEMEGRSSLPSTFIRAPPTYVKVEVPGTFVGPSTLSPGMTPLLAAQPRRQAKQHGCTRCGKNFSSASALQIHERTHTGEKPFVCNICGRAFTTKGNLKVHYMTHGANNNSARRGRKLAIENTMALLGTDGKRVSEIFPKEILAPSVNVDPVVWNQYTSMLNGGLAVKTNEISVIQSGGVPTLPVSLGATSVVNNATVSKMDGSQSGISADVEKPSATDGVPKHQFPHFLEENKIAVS
Technique: universal PBM
Molecule type: double-stranded DNA, one strand shown
Medium: in vitro
Tested at: 600 nM
Notes: 8-mer, flanks averaged, mean of replicates
Direction: higher = stronger binding
Endpoint: E-score
GATCGAAA: 0.118
AACTAGGC: -0.0926
CACTGCTG: -0.195
CACGGAGA: -0.269
GTGGCCGA: -0.248
AAATTTAT: 0.405
CGGCGGTC: -0.384
AGGTAGGC: -0.166
AGAAAAAA: 0.252
AAATAGAG: 0.213
AATCAACA: 0.294
ATATCCTG: 0.132
ACGCCCCA: -0.175
AAATCGGT: 0.0406
CTCTAATC: -0.0163
GGAGCGCC: -0.396
ATGATCAG: 0.157
TCAGCAGA: 0.0306
ATTATTTA: 0.422
GAGACATC: -0.108
GTCTCTGA: -0.162
AGCATCCA: -0.126
ACCGGACA: -0.262
GGCTTGAC: -0.187
ATAAAATG: 0.369

Study 5
Target: ABI1, truncated, D143A, DHFR fusion (Arabidopsis thaliana)
Technique: DHFR PCA, deep sequencing
Medium: yeast
Notes: methotrexate growth selection, single substitutions
Added: (+)-ABA 0.11 µM
Relative to: wild-type fitted maximum
Direction: higher = stronger binding
Endpoint: relative binding score
Parent: PYL1, truncated, DHFR fusion (Arabidopsis thaliana); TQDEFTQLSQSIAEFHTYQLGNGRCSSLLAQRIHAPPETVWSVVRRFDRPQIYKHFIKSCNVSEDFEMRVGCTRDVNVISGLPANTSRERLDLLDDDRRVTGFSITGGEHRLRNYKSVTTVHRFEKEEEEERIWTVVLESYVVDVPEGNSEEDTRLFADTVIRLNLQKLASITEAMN; partner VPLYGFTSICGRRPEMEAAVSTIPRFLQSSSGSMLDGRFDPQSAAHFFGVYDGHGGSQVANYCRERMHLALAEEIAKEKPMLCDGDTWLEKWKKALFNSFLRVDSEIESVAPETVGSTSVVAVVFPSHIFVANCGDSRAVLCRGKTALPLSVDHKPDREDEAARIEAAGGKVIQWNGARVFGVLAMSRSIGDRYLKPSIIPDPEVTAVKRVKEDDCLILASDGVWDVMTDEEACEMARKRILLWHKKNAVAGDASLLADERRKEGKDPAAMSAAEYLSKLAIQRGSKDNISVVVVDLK
T106W: -4.74%
I52A: 42%
L29E: -1%
N85H: 62.1%
T86Y: 33.8%
N61M: 29.7%
H110Y: 13%
V100S: -4.55%
V40N: -11.7%
E38Y: 4.18%
W134I: 23.3%
H16G: 1.18%
G107A: 19%
R32S: 12.3%
E14T: 8.28%
L94I: 8.83%
N61T: 53.4%
V62P: -5.33%

For quick reference, copied from above (study 3):
UGGGAGGUGGAUUUUGUUUAUUUUUUUAGCUCAUUUCCAGGGGUGGGAAUUUUUUUUUAAUAUGUGUCUUGAAUAAAGUUGUUUUUGAAA: 0.194
UGUGCUACACAUCGUAUGUACCGAAUCGGGCCCCCCCGGGCCCCCCCGGGGCCCCCCCGGGGAAAGUAUUAUGUUACGCCGUUCGGAUCU: -1.02
UCAAGUCCUGUGCUACACAUCGUAUGUACCGAAUCGGGGAAAGGAAAGGGAAAGGAAAGUAUUAUGUUACGCCGUUCGGAUCUGCACUUC: -0.733
UUUUAUUCUUCCAUCUUUUCCCACAGGUGGCAGCUGCCAACAAGAAGCAUUAGAACAAACCAUGCUGGGUUAAUAAAUUGCCUCAUUCGU: 1.49
GGAAGGGGGCUUGCGCCACGGCAGUGAAUCUUCAUGGAUCUUCAUGCAGCCAUACAAACCCUGGUUCCAACAGAAUGGUGAAUUUUCGAC: -1.48
UCCUGUGCUACACAUCGUAUGUACCGAAUCGGGGAAAAAGGGGAAAAAGGGGAAAGGGGAAAGUAUUAUGUUACGCCGUUCGGAUCUGCA: -0.266
AGUCCUGUGCUACACAUCGUAUGUACCGAAUCGGAAAAAGGGGAAAAAGGAAAAAGGGAAAGUAUUAUGUUACGCCGUUCGGAUCUGCAC: -0.639
GCAGGAAGUAAAAACAAAUGGAAAUGCUUCGGAUAGUGGCAGGGGUGGGGGUUGCUAAGGAAAGGGUGGGAUGGGAGUGGGUAGAGAGUU: 1.24
UCCUCAAGUCCUGUGCUACACAUCGUAUGUACCGAAUCGGCGGGGCGGGCGGAAAGUAUUAUGUUACGCCGUUCGGAUCUGCACUUCCAG: 0.695
UAACUUUAGAGGUGGAUCUGAUGGAUAUGGCAGUGGACGUGGAUUUGGGGAUGGCUAUAAUGGGUAUGGAGGAGGACCUGGAGGUGGCAA: 0.463
ACCAUGCAGGUGGGCAUAAAUGGGAAGUGGGGCAAGGGGGGGAUAGGGAGGGGGGUAACACUUUGGGAACAGGUGGUCCCAGGUCGUUUC: 1.32
